Measured values of several laboratories.
Lines come from different studies, so protocols differ. ± gives the spread as reported.

Compound | test | test system | setting | how to read | measurement | result
CO[C@H]1C[C@@H]2CC[C@@H](C)[C@@](O)(O2)C(=O)C(=O)N2CCCC[C@H]2C(=O)O[C@H]([C@H](C)C[C@@H]2CC[C@@H](OC(=O)NCCOCCOCCOCCOCCOCCOCCOCCOCCC(=O)N3CCc4cc(Cn5nc(-c6ccc7oc(N)nc7c6)c6c(N)ncnc65)ccc4C3)[C@H](OC)C2)C[C@@H](O)[C@H](C)/C=C(\C)[C@@H](O)[C@@H](OC)C(=O)[C@H](C)C[C@H](C)/C=C/C=C/C=C/1C | – | patients with advanced solid tumours | intravenous, 12 mg weekly, any grade | – | constipation incidence | 25%
COc1ccc(C[C@@H]2NC(=O)[C@H]([C@@H](C)O)NC(=O)[C@@H]3[C@@H]4CCN3C(=O)[C@@H]3Cc5cn(c6ccc(F)cc56)CCCCCCN(Cc5ccc(cc5)CCNC(=O)[C@]5(C)CCCN5C2=O)C(=O)CCC(=O)N[C@@H](C)C(=O)N[C@H](CNC(=O)CCCCC[N+](C)(C)C)C(=O)N[C@@H](Cc2cccc(c2)CNC(=O)CO4)C(=O)N3)cc1 | measured: limb discomfort | human | dose not given | – | participants with adverse event | 3.2%
Cc1cn([C@H]2O[C@@H](CO[P@@](=O)(N[C@@H](C)C(=O)OC(C)C)Oc3ccccc3)[C@H](O)[C@H]2F)c(=O)[nH]c1=O | measured: Thrombocytosis | human | 10 mg | – | patients with TEAE | 17%
CCN(CCO)CCCC(C)Nc1ccnc2cc(Cl)ccc12 (stereo not shown) | measured: Agitation grade 1 | newly diagnosed glioblastoma patients | oral, 400 mg/dose, with radiotherapy and temozolomide | – | patients with adverse event | 14%
Cn1cc(-c2nc(N[C@@H]3CCCC[C@@H]3N)c(F)c3c2C(=O)NC3)cn1 | measured: Conjunctival haemorrhage | patients with relapsed or refractory AML | oral, dose not given, all doses | – | hemorrhagic adverse events | 1 number of patients
CC(C)[C@@H]1NC(=O)CNC(=O)[C@H](CC(N)=O)NC(=O)[C@H](CCCNC(=N)N)NC(=O)[C@H](Cc2ccc(O)cc2)NC(=O)[C@H](C(C)C)NC(=O)[C@@H](NC(=O)[C@@H](NC(=O)[C@H](CC(N)=O)NC(=O)[C@H](Cc2c[nH]c3ccccc23)NC(=O)[C@H](C)NC(=O)[C@H](Cc2ccccc2)NC(=O)CN)C(C)C)CSSC[C@@H](C(=O)N[C@@H](Cc2cnc[nH]2)C(=O)N[C@@H](CCCNC(=N)N)C(=O)N[C@@H](CCCNC(=N)N)C(=O)N[C@@H](C)C(=O)N[C@@H](CC(N)=O)C(N)=O)NC(=O)[C@H](C(C)C)NC(=O)[C@H](CCCNC(=N)N)NC1=O | – | ICR mice, blood | intraperitoneal, 5 mg/kg, day 5 | – | neutrophils | 17.3 ± 0.65%
CCCC(CCC)NC(=O)c1ccc2c(c1)OCO2 | – | Swiss albino CD-1 mice, male, bone marrow | intraperitoneal, 700 mg/kg, 48 h | – | PCE/NCE ratio | 0.9
COc1cc2c(cc1OC)CN(CCc1ccc(NC(=O)c3cccc4c(=O)c5cccc(OC)c5[nH]c34)cc1)CC2 | – | CD-1 mouse, male, plasma | intraperitoneal, 0.3 mg/kg | – | AUC(0-inf) | 498 ng·h/mL
Cc1cccc(Cn2nc(C3CC3)c3c(NC(=O)c4cnc5cc(OCCN6CCN(C)CC6)ccn45)cccc32)n1 | CTCAE v4.03, measured: blood alkaline phosphatase increased | platinum-resistant ovarian cancer patients | oral, dose not given, with: pembrolizumab IV every 3 weeks | – | all-cause adverse events | 0%
CCc1ccc(CC/C=C/c2ccc3c(c2)C(=O)CC3)cc1 | – | Sprague-Dawley rat, male | oral, 450 mg/kg/day, 14 days | – | Albumin | 32.4 g/L
CC(C)(C)c1cc(-n2nc3ccccc3n2)c(O)c(C(C)(C)C)c1 | exposure assessment | human, age 16-21 years | concentration not given, spray sunscreen, 95th percentile | – | daily dermal uptake, percentile | 14.2 ng/kg body weight/day
CC(C)C[C@H](NC(=O)[C@H](CCCCN)NC(=O)OCC1c2ccccc2-c2ccccc21)C(=O)N[C@H](C(=O)N[C@@H](Cc1ccccc1)C(=O)N[C@@H](Cc1ccccc1)C(=O)N[C@@H](CCCCN)C(=O)NCC(=O)N[C@@H](Cc1ccccc1)C(=O)N[C@@H](C)C(=O)N[C@@H](Cc1c[nH]c2ccccc12)C(=O)N[C@@H](CC(N)=O)C(=O)N[C@H](C(=O)N[C@H]1CSSC[C@@H](C(=O)N[C@@H](Cc2c[nH]cn2)C(=O)N[C@@H](CCCNC(=N)N)C(=O)N[C@@H](CCCNC(=N)N)C(=O)N[C@@H](C)C(=O)N[C@@H](CC(N)=O)C(N)=O)NC(=O)[C@H](C(C)C)NC(=O)[C@H](CCCNC(=N)N)NC(=O)[C@H](C(C)C)NC(=O)CNC(=O)[C@H](CC(N)=O)NC(=O)[C@H](CCCNC(=N)N)NC(=O)[C@H](Cc2ccc(O)cc2)NC(=O)[C@H](C(C)C)NC1=O)C(C)C)C(C)C | – | ICR mice, blood | intraperitoneal, 10 mg/kg, day 5 | – | plateletcrit | 0.03 ± 0.01%
C=CC(=O)N1CCC(c2ccc(C(N)=O)c(-c3ccc(Oc4ccccc4)cc3)n2)CC1 | CTCAE 4.03 | patients with relapsed/refractory MCL | oral, dose not given, total | – | incidence of fatal serious TEAEs | 0%
CC1(C)[C@H](C=C(Cl)Cl)[C@H]1C(=O)OCc1cccc(Oc2ccccc2)c1 | measured: CYP2B6 | human, age 5 years, recombinant human CYP2B6 | 0.1 µM | – | enzyme contribution to clearance | 0.05%
O=[N+]([O-])c1ccc2c(c1)S(=O)(=O)C=C2 | – | male C57BL/6 mice | i.p., 20 mg/kg, day 8, repeated dosing | – | spleen weight | 0.125 g
O=c1ccc2ncc(=O)n3c2n1C[C@H]3CN1CCC(NCc2cc3c(cn2)OCCC3)CC1 | – | healthy human volunteers | oral, 1500 mg, rifampicin cohort, with: rifampicin 600 mg | – | incidence of nervous system disorders | 12%
CC(C)n1c(C2CCNCC2)nc2c([N+](=O)[O-])c(Br)c(Br)cc21 | – | patients with AML | 125 mg, fungal pneumonia | – | AE leading to discontinuation | 6%

Compound | test | test system | setting | how to read | measurement | result
C[C@]1(CO)Cc2ncn(-c3ccc(C#N)c(Cl)c3)c2C(=O)O1 | – | human | all doses, European multiple ascending dose | – | drug-related urine abnormality | 2.2%
O=S(=O)(Nc1ccccc1)c1ccc(NC(=S)Nc2ccccc2)cc1 | – | mouse, male, liver | oral, 5 mg/kg daily, 14 days | relative to: body weight | relative organ weight | 5.22%
O=C(O)CCCOc1ccc(F)cc1-c1cc(-c2ccccc2C(F)(F)F)n(-c2ccccc2)n1 | measured: thyroid | Crl:CD(SD) rats, male | iv, 25 µg/kg, 14 days | – | relative organ weight | 5.7 ± 0.9 mg%
COc1ccc(-c2c(-c3ccc(C#N)c(F)c3)nc(N3CCC(N)CC3)n(C)c2=O)cc1F | measured: Constipation | relapsed/refractory marginal zone lymphoma patients | oral, 60 mg, any grade, dose expansion | – | treatment-related adverse event incidence | 0%
CC(C)(O)c1cc(Nc2cc(Oc3cn(C4CC4)nc3C3CCOCC3)ccn2)ccn1 | measured: Anemia | Japanese patients with advanced cancer | oral, dose not given, any grade | – | treatment-emergent adverse events | 33%
C=CCNc1c(O)cc2c(O)c1C[C@@H](C)C[C@H](OC)[C@H](O)[C@@H](C)/C=C(\C)[C@H](OC(N)=O)[C@@H](OC)/C=C\C=C(/C)C(=O)N2 | measured: Myalgia | unresectable or metastatic GIST/STS | intravenous, dose not given, all doses | – | patients with TEAE | 28%
O=C1Nc2cc3[nH]nc(-c4ccncc4)c3cc2CN1Cc1ccccc1 | CTCAE v4.03 | human, relapsed or refractory advanced solid tumours | intravenous, 0.9 mg/kg, pooled schedules | – | patients with rash | 0%
C[C@@H]1NC(=O)[C@H](CCCCNC(=O)CO/N=C/C(=O)NCCCC[C@@H]2NC(=O)[C@@H](Cc3ccccc3)NC(=O)[C@H](CC(=O)O)NC(=O)CNC(=O)[C@H](CCCNC(=N)N)NC2=O)NC(=O)CNC(=O)[C@@H]2CCCN2C(=O)[C@H](CCCCNC(=O)CO/N=C/C(=O)NCCCC[C@@H]2NC(=O)[C@@H](Cc3ccccc3)NC(=O)[C@H](CC(=O)O)NC(=O)CNC(=O)[C@H](CCCNC(=N)N)NC2=O)NC(=O)[C@H](CCCCNC(=O)CCNC(=O)CCNC(=O)CCNC(=O)[C@H](CCCCN)NC(=O)[C@H](Cc2ccccc2)NC(=O)CNC(=O)CN2CCCNCCNCCCNCC2)NC(=O)[C@H](CCCCNC(=O)CO/N=C/C(=O)NCCCC[C@@H]2NC(=O)[C@@H](Cc3ccccc3)NC(=O)[C@H](CC(=O)O)NC(=O)CNC(=O)[C@H](CCCNC(=N)N)NC2=O)NC(=O)CNC(=O)[C@@H]2CCCN2C(=O)[C@H](CCCCNC(=O)CO/N=C/C(=O)NCCCC[C@@H]2NC(=O)[C@@H](Cc3ccccc3)NC(=O)[C@H](CC(=O)O)NC(=O)CNC(=O)[C@H](CCCNC(=N)N)NC2=O)NC1=O [copper-64 labelled] | – | normal mice, pancreas | intravenous, 0.74 MBq, 3 h post-injection | – | tissue uptake | 0.75 ± 0.05 %ID/g
COc1cc(C(=O)NC2CCN(C)CC2)c(F)cc1Nc1ncc(C(F)(F)F)c(Oc2cccc3c2C(=O)N(C)C3)n1 | – | human patients, urine | oral, 10 mg single dose, geometric mean | relative to: dose | fraction excreted in urine (0-48 h) | 2.49%
N=c1c2c(-c3ccccc3)c(-c3ccccc3)n(Cc3ccccc3)c2ncn1[C@H]1CC[C@H](O)CC1 | equilibrium dialysis | pooled human plasma | – | – | fu | 0.0059
COc1cc2c(Oc3ccc4[nH]c(C)cc4c3F)ccnc2cc1OCC1(N)CC1 | – | paediatric recurrent refractory sarcoma | 12 mg | – | grade 1 or 2 Appendicitis | 0%
CC[C@H](C)[C@H](NC(=O)[C@H](Cc1ccccc1)NC(=O)[C@H](CCC(=O)O)NC(=O)[C@H](CCCNC(=N)N)NC(=O)[C@H](C)NC(=O)[C@H](C)NC(=O)[C@H](CCC(N)=O)NC(=O)[C@H](CCC(=O)O)NC(=O)[C@H](CCC(=O)O)NC(=O)[C@H](CC(C)C)NC(=O)[C@H](Cc1ccc(O)cc1)NC(=O)[C@H](CO)NC(=O)[C@H](CO)NC(=O)[C@@H](NC(=O)[C@H](CC(=O)O)NC(=O)[C@H](CO)NC(=O)[C@@H](NC(=O)[C@H](Cc1ccccc1)NC(=O)[C@@H](NC(=O)CNC(=O)[C@H](CCC(=O)O)NC(=O)[C@H](C)NC(=O)CCc1cnc[nH]1)[C@@H](C)O)[C@@H](C)O)C(C)C)C(=O)N[C@@H](C)C(=O)N[C@@H](Cc1c[nH]c2ccccc12)C(=O)N[C@@H](CC(C)C)C(=O)N[C@H](C(=O)N[C@@H](CCCNC(=N)N)C(=O)NCC(=O)N[C@@H](CCCNC(=N)N)C(=O)N[C@@H](CCCCNC(=O)COCCOCCNC(=O)COCCOCCNC(=O)CC[C@H](NC(=O)CCCCCCCCCCCCCCCCC(=O)O)C(=O)O)C(=O)NCC(=O)NCC(=O)N[C@@H](CO)C(=O)N[C@@H](CCCCNC(=O)[C@H](CCCCNC(=O)[C@H](CCCCNc1c(NCCCCCN(O)C(=O)CCC(=O)NCCCCCN(O)C(=O)CCC(=O)NCCCCCN(O)C(C)=O)c(=O)c1=O)Nc1c(NCCCCCN(O)C(=O)CCC(=O)NCCCCCN(O)C(=O)CCC(=O)NCCCCCN(O)C(C)=O)c(=O)c1=O)NC(=O)[C@H](CCCCNc1c(NCCCCCN(O)C(=O)CCC(=O)NCCCCCN(O)C(=O)CCC(=O)NCCCCCN(O)C(C)=O)c(=O)c1=O)Nc1c(NCCCCCN(O)C(=O)CCC(=O)NCCCCCN(O)C(=O)CCC(=O)NCCCCCN(O)C(C)=O)c(=O)c1=O)C(=O)O)C(C)C [zirconium-89 labelled] | ex vivo gamma counting | male Sprague-Dawley rats, muscle | intravenous, 1 nmol, 24 h | – | tissue uptake | 0.114 %ID/g
CC(=O)c1c(C)c2cnc(Nc3ccc(C4CCN(CCS(C)(=O)=O)CC4)cn3)nc2n(C2CCCC2)c1=O | – | HR+/HER2- advanced breast cancer patients | oral, 100 mg twice daily, grade 3/4,, monotherapy | – | patients with GGT increased | 0%
Cc1nonc1Cn1nnc2c(N3CC[C@H](O)C3)nc(C(C)(C)C)nc21 | – | C57BL/6 mice | oral, dose not given | – | oral bioavailability | 44%
COc1ncccc1-c1cnn2ccc(N3CCN(C(=O)OC(C)C)CC3)nc12 | – | rat, plasma | oral, 30 mg/kg, 1.5 h, with: saline | – | concentration | 2100 nM
Cc1ccccc1C(=O)NN=Cc1ccc(O)c(Br)c1 | – | normal C3H/HeN mouse, plasma | intravenous, 0.8 mg/kg | – | C0 | 150 ng/mL
C[C@@H](NC(=O)N1C(=O)[C@H](Cc2ccnc(N)c2)[C@H]1C(=O)O)C1CCCCC1 | – | healthy adult Chinese volunteers | continuous intravenous infusion, 0.3 mg/kg/h, 5-day infusion, CTCAE 5.0 grading | – | incidence of diarrhea | 0%
